Published values pooled from the literature.
± gives the spread as reported.

The IC50 of COc1ccc(CC[C@H]2OC(=O)[C@@H]3CCCCN3C(=O)C(=O)C(C)(C)COC(=O)C=CCCN(C)C(=O)[C@H](CC(C)C)N(C)C(=O)[C@@H]3CCCN3C(=O)[C@H](Cc3ccccc3)N(C)C(=O)[C@@H](Cc3ccccc3)NC(=O)CCC(=O)Nc3cccc2c3)cc1OC is reported as over 20 µM (HUVEC; thymidine uptake, inhibitor).
COc1ccc2c(c1)CN1C(=S)N([C@H](C)c3ccccc3)C(=O)C1=N2 gave an IC50 of 1.53 ± 0.15 µM (CCRF-CEM; resazurin; 72 h).
With COc1ccc(CC[C@H]2OC(=O)[C@@H]3CCCCN3C(=O)C(=O)C(C)(C)COC(=O)C=CCCN(C)C(=O)[C@H](CC(C)C)N(C)C(=O)[C@H]3CCCN3C(=O)[C@H](Cc3ccccc3)N(C)C(=O)[C@H](Cc3ccc(OC(C)(C)C)cc3)NC(=O)CCC(=O)Nc3cccc2c3)cc1OC the IC50 was over 20 µM (HUVEC; thymidine uptake, inhibitor).
C=CC(=O)N1CCCC(n2c(=O)c3ncccc3n(Cc3ccc(Oc4ccccc4)cc3)c2=O)C1 (stereo not shown) has an IC50 of 3.5 µM (BCL1; cell growth or viability, MTT; 72 h).
For COC(=O)N1c2ccc3c(nc(Cc4ccccc4)n3[C@@H]3CCC[C@@H](C(=O)O)C3)c2CC[C@@H]1C, the IC50 was 0.158 µM (MDA-MB-453; cell growth or viability, ATP luminescence; 10 days).
The IC50 of Cn1ncc2cc(-c3cncc(Cl)c3N3CCC4(CCNC4=O)CC3)ccc21 is reported as 0.01 ± 0.007 µM (7dF3; WNT reporter gene, inhibitor).
The IC50 of Cc1ccc2c(Cl)cc(Cl)c([O-])c2n1.Cc1ccc2c(Cl)cc(Cl)c([O-])c2n1.[Co+2].c1ccc2nc3c4cccnc4c4ncccc4c3nc2c1 is reported as 70.3 ± 1.11 µM (HL-7702 normal hepatocytes; cell viability, MTT; 48 h).
C[C@H](c1cccc2ccccc12)N1C(=O)C2=Nc3ccccc3CN2C1=S gave an IC50 of 0.518 µM (CCRF-CEM; cell growth or viability, resazurin; 72 h).
Cc1ccc([N+](=O)[O-])cc1S(=O)(=O)N(C)/N=C/c1cnc2ccc(Br)cn12 has an IC50 of 0.177 µM (SF-539; MTS; NCI60 panel).
For CCNC(=S)NN=Cc1ccc([N+](=O)[O-])o1, the IC50 was over 100 µM (IMR-90; cell growth or viability, resazurin).
The IC50 of COc1ccc(CC[C@H]2OC(=O)[C@@H]3CCCCN3C(=O)C(=O)C(C)(C)COC(=O)C=CCCN(C)C(=O)[C@H](C(C)C)NC(=O)[C@@H](Cc3ccccc3)N(C)C(=O)[C@@H]3CCCN3C(=O)[C@H](CC(C)C)N(C)C(=O)CCC(=O)Nc3cccc2c3)cc1OC is reported as 1.2 ± 0.3 µM (HUVEC; thymidine uptake, inhibitor).
For O=C1/C(=N\c2ccc(Cl)cc2Br)c2ccccc2N1Cc1cccc(Cl)c1 (mixture of isomers), the IC50 was 16.7 µM (L02; cell growth or viability, MTT; 48 h).
For COc1ccc(CC[C@H]2OC(=O)[C@@H]3CCCCN3C(=O)C(=O)C(C)(C)COC(=O)/C=C/CCN(C)C(=O)[C@H](CC(C)C)N(C)C(=O)[C@@H]3CCCN3C(=O)[C@H](Cc3ccccc3)N(C)C(=O)[C@H](c3ccccc3)NC(=O)CCC(=O)Nc3cccc2c3)cc1OC, the IC50 was 0.0062 ± 0.0013 µM (HUVEC; [3H]thymidine incorporation).
O=C(NCc1cc(F)cc(F)c1)[C@@]1(O)CCN(c2ccc3[nH]ccc3c2)C1=O gave an IC50 of over 10 µM (RXF 631; colony formation).
For CCOc1cncc(-c2ccc(NC(=O)C3(c4ccnc(NS(=O)(=O)C5CC5)n4)CCOCC3)nc2)n1, the IC50 was 0.157 µM (C32; cell growth or viability, ATP luminescence; 72 h).
With Cc1nc(Nc2ccc3c(c2)/C(=C/c2ccccc2)C(=O)N3)c2ccccc2n1 the IC50 was 6.67 µM (H22; cell growth or viability, MTT).
The IC50 of O=C1/C(=N\c2ccc(Cl)cc2Br)c2ccccc2N1C(=O)c1ccccc1Br is reported as over 100 µM (L02; cell growth or viability, MTT; 48 h).
COc1ccc(CC[C@H]2OC(=O)[C@@H]3CCCCN3C(=O)C(=O)C(C)(C)COC(=O)C=CCCN(C)C(=O)[C@H](Cc3ccccc3)N(C)C(=O)[C@H]3CCCN3C(=O)[C@H](CC(C)C)N(C)C(=O)[C@H](Cc3ccccc3)NC(=O)CCC(=O)Nc3cccc2c3)cc1OC gave an IC50 of over 20 µM (HUVEC; thymidine uptake, inhibitor).
C[C@@H](c1ccccc1)N1C(=O)C2=Nc3ccccc3CN2C1=S gave an IC50 of 0.482 µM (CCRF-CEM; cell growth or viability, resazurin; 72 h).
CC(=O)[O][Pt]([NH2])([NH2])([Cl])([Cl])[O]C(=O)CCCc1ccccc1 has an IC50 of 2.25 µM (BCPAP; cell growth or viability, MTT; 72 h).
The IC50 of Cc1ccnc(-c2cc(C)ccn2)c1.[Co+2].[O-]c1c(I)cc(I)c2cccnc12.[O-]c1c(I)cc(I)c2cccnc12 is reported as 80.45 ± 0.33 µM (HL-7702 normal hepatocytes; cell viability, MTT; 48 h).
With COC[C@H](C)N1C(=O)C2=Nc3ccccc3CN2C1=S the IC50 was 11.2 ± 3.54 µM (CCRF-CEM; resazurin; 72 h).
The IC50 of Cn1ncc(-c2ccc3c(=O)[nH]nc(CN)c3c2)c1-c1c(F)c(Cl)cc(OC2CC2)c1C#N is reported as 0.13 µM (HCC1395; cell viability, inhibitor, CellTiter-Glo; 120 h, baseline-subtracted).
COc1cc(C(=O)N/N=C/c2cccc3ccccc23)cc(OC)c1OC gave an IC50 of 0.0423 µM (RS4-11; cell growth or viability, MTT; 48 h).
NC1=C(Cl)C(=O)c2ccccc2C1=O has an IC50 of 8.28 µM (MOLT-3; cell growth or viability, XTT).
COc1ccc(CC[C@H]2OC(=O)[C@@H]3CCCCN3C(=O)C(=O)C(C)(C)COC(=O)C=CCCN(C)C(=O)[C@H](CC(C)C)N(C)C(=O)[C@H]3CCCN3C(=O)[C@H](Cc3ccc(F)cc3)NC(=O)[C@H](c3ccccc3)NC(=O)CCC(=O)Nc3cccc2c3)cc1OC gave an IC50 of 0.057 ± 0.013 µM (HUVEC; thymidine uptake, inhibitor).
For O=C1C2=Nc3ccccc3CN2C(=S)N1c1ccc([N+](=O)[O-])cc1, the IC50 was 27.8 µM (CCRF-CEM; cell growth or viability, resazurin; 72 h).
With O=C(CCCCCONC(=O)c1nc(-c2ccc(Cl)cc2)cs1)NO the IC50 was 1.48 µM (neonatal foreskin fibroblasts; cytotoxicity, sulforhodamine B; 72 h).
With CC[C@H](C)[C@H](NC(=O)[C@H](CC(=O)O)NC(=O)[C@H](Cc1ccccc1)NC(=O)[C@H]1CCC[C@@H]1NC(=O)CN)C(=O)N[C@H](CC(=O)N[C@@H](CCCCN)C(=O)N[C@@H](CCCCN)C(=O)N[C@H]1CCC[C@@H]1C(=O)N[C@@H](C)C(=O)N[C@@H](CCC(=O)O)C(=O)N[C@@H](CO)C(=O)N[C@H](CC(N)=O)Cc1ccccc1)[C@@H](C)CC the IC50 was 101 µg/mL (HUVEC; cytotoxicity).
The IC50 of COC1CC(=O)c2c(O)cccc2C12Oc1cccc3cccc(c13)O2 (stereo not shown) is reported as over 25 µM (MDA-MB-435; cell growth or viability, resazurin; 72 h).
For CNS(=O)(=O)Nc1nccc(Cc2c(C)c3ccc(Oc4ncccc4F)cc3oc2=O)c1F, the IC50 was over 1 µM (NCI-H526; cell viability; 7 days).
For N#Cc1c(N)nc2c(c1-c1ccc(CO)o1)CCc1cc(O)ccc1-2, the IC50 was 2.8 µM (HuT78; cell growth or viability, ATP luminescence).
For COc1ccc(CC[C@H]2OC(=O)[C@@H]3CCCCN3C(=O)C(=O)C(C)(C)COC(=O)C=CCCN(C)C(=O)[C@H](Cc3cccc4ccccc34)NC(=O)[C@@H](Cc3ccccc3)N(C)C(=O)[C@@H]3CCCN3C(=O)[C@H](CC(C)C)N(C)C(=O)CCC(=O)Nc3cccc2c3)cc1OC, the IC50 was over 20 µM (HUVEC; thymidine uptake, inhibitor).
With Cc1ccc2c(Cl)cc(Cl)c([O-])c2n1.Cc1ccc2c(Cl)cc(Cl)c([O-])c2n1.[Co+2].c1cnc2c(c1)ccc1cccnc12 the IC50 was 71.25 ± 0.22 µM (HL-7702 normal hepatocytes; cell viability, MTT; 48 h).
The IC50 of CC(C)c1ccc(N(C)c2ccc3c(c2)OCC[C@H]3CNc2cnccc2C(=O)O)cc1 is reported as 0.00461 µM (COLO-320-HSR; cell growth or viability, ATP luminescence; 7 days).
With CC(C)CCC[C@@H](C)[C@H]1CC[C@H]2[C@@H]3CC=C4C[C@@H](OC(=O)NCCCN(C)CCC[n+]5c6cc(N(C)C)ccc6cc6ccc(N(C)C)cc65)CC[C@]4(C)[C@H]3CC[C@]12C the IC50 was over 100 µM (ARPE-19; cytotoxicity, CCK-8; 48 h).
The IC50 of O=C1/C(=N\c2ccc(Cl)cc2Br)c2ccccc2N1C(=O)c1ccccc1 is reported as over 100 µM (L02; cell growth or viability, MTT; 48 h).
For CC[C@H](C)[C@H](NC(=O)[C@H](CCCCN)NC(=O)C[C@H](Cc1ccccc1)NC(=O)[C@H](CC(C)C)NC(=O)CN)C(=O)N[C@H](CC(=O)N[C@@H](CCCCN)C(=O)N[C@@H](CCCCN)C(=O)N[C@H](CC(=O)N[C@@H](C)C(=O)N[C@@H](CCCCN)C(=O)N[C@@H](CO)CC(=O)N[C@@H](Cc1ccccc1)C(N)=O)[C@@H](C)CC)[C@@H](C)CC, the IC50 was 50.4 µg/mL (HUVEC; cytotoxicity).
The IC50 of O=C(CCCCCONC(=O)c1nc(-c2cccc([N+](=O)[O-])c2)cs1)NO is reported as 12 µM (neonatal foreskin fibroblasts; cytotoxicity, sulforhodamine B; 72 h).
CCCc1cc2cc(-n3cc(C)c4c3CC(C)(C)CC4=O)cc(N3CCC(O)CC3)c2c(=O)[nH]1 has an IC50 of 5.65 µM (SK-OV-3; cell growth or viability, MTS).
CC[C@H](C)[C@H](NC(=O)[C@H](CCCCN)NC(=O)[C@H](CCCCN)NC(=O)[C@@H](NC(=O)[C@@H](NC(=O)[C@H](CC(=O)O)NC(=O)[C@H](Cc1ccccc1)NC(=O)[C@H](CC(C)C)NC(=O)CN)[C@@H](C)CC)[C@@H](C)CC)C(=O)N[C@@H](C)C(=O)N[C@@H](CCC(=O)O)C(=O)N[C@@H](CO)C(=O)N[C@@H](Cc1ccccc1)C(N)=O gave an IC50 of 64.6 µg/mL (HUVEC; cytotoxicity).
COc1ccc(CC[C@H]2OC(=O)[C@@H]3CCCCN3C(=O)C(=O)C(C)(C)COC(=O)C=CCCN(C)C(=O)[C@H](Cc3ccccc3)NC(=O)[C@H](Cc3ccccc3)N(C)C(=O)[C@@H]3CCCN3C(=O)[C@@H](CC(C)C)N(C)C(=O)CCC(=O)Nc3cccc2c3)cc1OC gave an IC50 of over 20 µM (HUVEC; thymidine uptake, inhibitor).
The IC50 of Cc1cnc2nc1Nc1cc(ccc1F)COC/C=C/COCc1cc(ccc1OCCN1CCCC1)N2 is reported as 5.32 µM (HEL 92.1.7 JAK2 V617F; cell growth, CCK-8).
